# Experimental data collected from several papers.
# Protocols differ between the studies behind these lines.
# Alpha-carbonic anhydrase: Alpha-carbonic anhydrase (Enterococcus faecium, UniProt Q3XYE8)
# UniProt Q70CQ1, sequence (whole entry, looked up): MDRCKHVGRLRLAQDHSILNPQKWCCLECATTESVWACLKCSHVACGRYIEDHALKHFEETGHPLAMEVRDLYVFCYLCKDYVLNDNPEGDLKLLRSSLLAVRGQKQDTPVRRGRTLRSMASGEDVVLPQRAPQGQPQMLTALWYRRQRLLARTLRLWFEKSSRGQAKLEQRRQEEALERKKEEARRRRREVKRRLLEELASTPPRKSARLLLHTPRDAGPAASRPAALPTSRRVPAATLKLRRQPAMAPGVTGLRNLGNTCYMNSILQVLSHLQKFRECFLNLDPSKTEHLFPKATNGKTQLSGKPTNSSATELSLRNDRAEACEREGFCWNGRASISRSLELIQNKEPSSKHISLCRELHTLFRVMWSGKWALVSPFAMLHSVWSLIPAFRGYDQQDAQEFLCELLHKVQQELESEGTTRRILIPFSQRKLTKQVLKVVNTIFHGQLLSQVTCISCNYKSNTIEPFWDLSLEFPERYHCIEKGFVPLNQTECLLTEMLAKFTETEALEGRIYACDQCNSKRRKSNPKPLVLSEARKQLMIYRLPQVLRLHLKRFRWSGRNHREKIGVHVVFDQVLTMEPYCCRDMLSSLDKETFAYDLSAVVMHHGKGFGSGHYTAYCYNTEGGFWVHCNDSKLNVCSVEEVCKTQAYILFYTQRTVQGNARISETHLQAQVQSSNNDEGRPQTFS
# UniProt Q53GS9, sequence (whole entry, looked up): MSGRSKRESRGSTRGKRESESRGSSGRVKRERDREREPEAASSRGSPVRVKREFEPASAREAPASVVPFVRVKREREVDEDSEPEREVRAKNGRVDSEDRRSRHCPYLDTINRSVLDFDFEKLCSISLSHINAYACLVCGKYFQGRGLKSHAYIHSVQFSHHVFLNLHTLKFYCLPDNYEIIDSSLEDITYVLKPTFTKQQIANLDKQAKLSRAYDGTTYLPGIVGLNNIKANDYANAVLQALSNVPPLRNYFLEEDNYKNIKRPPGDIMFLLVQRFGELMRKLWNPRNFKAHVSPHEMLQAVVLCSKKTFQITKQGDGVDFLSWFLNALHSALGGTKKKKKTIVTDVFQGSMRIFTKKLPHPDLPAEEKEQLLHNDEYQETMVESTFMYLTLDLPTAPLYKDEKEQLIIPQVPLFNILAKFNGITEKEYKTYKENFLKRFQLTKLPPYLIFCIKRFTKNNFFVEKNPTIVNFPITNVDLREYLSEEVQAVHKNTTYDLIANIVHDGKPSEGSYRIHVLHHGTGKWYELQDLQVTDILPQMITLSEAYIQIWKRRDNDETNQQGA
Structure (SMILES),target or system,test,system,setting,how to read,quantity,value
O=C(NOCC1CC1)c1ccc(F)c(F)c1Nc1ccc(I)cc1Cl,iCell Cardiomyocytes (hiPSC-derived),cellular impedance,,"concentration not given, 24 h",baseline: control,cell index,103%
COc1cc2/c(=N/c3ccc(Br)cc3F)nc[nH]c2cc1OCC1CCN(C)CC1,NLRP3 inflammasome (mouse),,mouse BMDM,10 µM,,inhibition,58.7%
CC(=O)N[C@H]1[C@H]([C@H](O)[C@H](O)CO)O[C@](OP(=O)(O)OC[C@H]2O[C@@H](n3ccc(N)nc3=O)[C@H](O)[C@@H]2O)(C(=O)O)C[C@@H]1O,,"binding, equilibrium dialysis LC-MS",,"5 µM, thermostabilized A2AR-BRIL construct","baseline: no-protein control, direction not given",z-scored log2 fold change,0.123
Cc1nc(Nc2ncc(C(=O)Nc3c(C)cccc3Cl)s2)cc(N2CCN(CCO)CC2)n1,iCell Cardiomyocytes (hiPSC-derived),xCELLigence Cardio impedance,,"concentration not given, 2 h",baseline: control,beat rate,75.5%
O=C(O)CCn1c(=O)oc2ccccc21,"Ubiquitin carboxyl-terminal hydrolase 39, ZnF-UBD domain (Homo sapiens, UniProt Q53GS9)",,,,,Kd,> 1000 µM
Cn1cc(-c2ccc(-c3cncc(Cl)c3N3CCC4(CCNC4=O)CC3)cc2)cn1,COLO 205,"gene expression, microarray, measured: SLC2A5 (GLUT5) mRNA",,"concentration not given, 2 h",baseline: untreated cells,log2 fold change,-2.47
O=C(O)Cc1cc(O)ccc1O,,"binding, equilibrium dialysis LC-MS",,"5 µM, thermostabilized A2AR-BRIL construct","baseline: no-protein control, direction not given",z-scored log2 fold change,-1.33
COc1ccc(-c2nc(N3CCOCC3)c3sc(CN(C)c4ncc(C(=O)NO)cn4)cc3n2)cn1,human alphaherpesvirus 1,live-cell GFP imaging,"primary human fibroblasts, K26 GFP",,,IC50,> 60 µM
CC(=O)N[C@@H](CCCN)C(=O)O,,"binding, equilibrium dialysis LC-MS",,"5 µM, thermostabilized A2AR-BRIL construct","baseline: no-protein control, direction not given",z-scored log2 fold change,0.332
O=C(Nc1ccc([N+](=O)[O-])cc1Cl)c1cc(Cl)ccc1O,human alphaherpesvirus 1,,"primary human fibroblasts, K26 GFP",,baseline: CC50 over IC50,selectivity index,52.6
NS(=O)(=O)c1nnc(NC(=O)CN2CCC(F)CC2)s1,Alpha-carbonic anhydrase,"CO2 hydration, inhibitor, stopped-flow kinetics",,,,Ki,0.0298 µM
C=CC(=O)Nc1cc(Nc2nccc(-n3cc(CN(C)C)c(-c4ccccc4)n3)n2)c(OC)cc1N1CCOCC1,NLRP3 inflammasome (mouse),,mouse BMDM,10 µM,,inhibition,-27%
NS(=O)(=O)c1nnc(NC(=O)C2CCC3(CCC3)CC2)s1,Alpha-carbonic anhydrase,"CO2 hydration, inhibitor, stopped-flow kinetics",,,,Ki,0.0544 µM
CN(C)C/C=C/C(=O)Nc1cc2c(Nc3ccc(F)c(Cl)c3)ncnc2cc1O[C@H]1CCOC1,NLRP3 inflammasome (mouse),,mouse BMDM,10 µM,,inhibition,87.3%
Cc1ncc(CO)c(CO)c1O,,"binding, equilibrium dialysis LC-MS",,"5 µM, thermostabilized A2AR-BRIL construct","baseline: no-protein control, direction not given",z-scored log2 fold change,0.0769
CS(=O)(=O)N1CCN(Cc2cc3nc(-c4cccc5[nH]ncc45)nc(N4CCOCC4)c3s2)CC1,iCell Cardiomyocytes (hiPSC-derived),CellTiter-Glo,,"concentration not given, 24 h",baseline: control,ATP level,85.9%
OC(CCN1CCCCC1)(c1ccccc1)C1CC2C=CC1C2 (stereo not shown),,resting-state EEG,healthy elderly humans,"oral, 4 mg, eyes closed, LS mean",baseline: baseline,change in EEG Beta3-power Fz-Cz,5.9%
Cc1ccc(-n2nc(C(C)(C)C)cc2NC(=O)Nc2ccc(OCCN3CCOCC3)c3ccccc23)cc1,iCell Cardiomyocytes (hiPSC-derived),cellular impedance,,"concentration not given, 24 h",baseline: control,cell index,101%
O=C(O)CCC(=O)Nc1ccccc1,"Ubiquitin carboxyl-terminal hydrolase 49, ZnF-UBD domain (USP49, Homo sapiens, UniProt Q70CQ1)",,,,,Kd,> 1000 µM
Cc1cc(C)c(/C=C2\C(=O)Nc3ccccc32)[nH]1,NLRP3 inflammasome (mouse),,mouse BMDM,10 µM,,inhibition,67%
O=c1cc[nH]c(=O)[nH]1,,"binding, equilibrium dialysis LC-MS",,"5 µM, thermostabilized A2AR-BRIL construct","baseline: no-protein control, direction not given",z-scored log2 fold change,0.436
S=C(NCc1ccc2c(c1)OCO2)N1CCN(c2ncnc3c2oc2ccccc23)CC1,NLRP3 inflammasome (mouse),,mouse BMDM,10 µM,,inhibition,-9.37%
NC(=O)c1cnc2[nH]ccc2c1N[C@@H]1[C@@H]2CC3C[C@H]1C[C@@](O)(C3)C2,,"CD8+ memory T cells, flow cytometry","Caucasian humans, peripheral blood",200 mg single dose,baseline: baseline,percent change,0.8%
O=C(O)[C@H]1O[C@H](OP(=O)(O)OP(=O)(O)OC[C@H]2O[C@@H](n3ccc(=O)[nH]c3=O)[C@H](O)[C@@H]2O)[C@H](O)[C@@H](O)[C@@H]1O,,"binding, equilibrium dialysis LC-MS",,"5 µM, thermostabilized A2AR-BRIL construct","baseline: no-protein control, direction not given",z-scored log2 fold change,0.0362
C[C@H]1CNC(=O)c2cnn3ccc(nc23)N[C@H](C)c2cc(F)ccc2O1,NLRP3 inflammasome (mouse),,mouse BMDM,10 µM,,inhibition,7.21%
